Results from different studies.
Compare with care: the assays were run in different laboratories. ± gives the spread as reported. In brackets after ≈: the same amount, converted by molar mass.

Compound	organism	test	system	conditions	how to read	quantity	result
C/C=C/c1ccc(OCc2ccccc2)c(OC)c1	Spodoptera frugiperda		larvae	250 µg/mL	reference: untreated control	antifeedant index	19.2%
CC[C@H](C)[C@H](NC(=O)[C@H](CCCCN)NC(=O)[C@H](CCCCN)NC(=O)[C@H](CC(C)C)NC(=O)[C@H](CCCCN)NC(=O)[C@H](CCC(=O)O)NC(=O)[C@H](CCCCN)NC(=O)[C@@H](NC(=O)[C@H](CCCCN)NC(=O)[C@H](CC(N)=O)NC(=O)[C@H](CCCNC(=N)N)NC(=O)[C@H](Cc1ccccc1)NC(=O)[C@H](CCCCN)NC(=O)[C@H](CCCNC(=N)N)NC(=O)[C@H](CC(C)C)NC(=O)[C@H](CCCNC(=N)N)NC(=O)[C@H](CCCCN)NC(=O)[C@H](CCCNC(=N)N)NC(=O)[C@H](CC(C)C)NC(=O)[C@@H](N)CC(C)C)[C@@H](C)CC)C(=O)NCC(=O)N[C@@H](CCC(N)=O)C(=O)N[C@@H](CCCCN)C(=O)N[C@H](C(=O)N[C@@H](CCC(N)=O)C(=O)NCC(=O)N[C@@H](Cc1ccccc1)C(=O)N[C@H](C(=O)N1CCC[C@H]1C(=O)N[C@@H](CCCCN)C(=O)N[C@@H](CC(C)C)C(=O)N[C@H](C(=O)N1CCC[C@H]1C(=O)N[C@@H](CCCNC(=N)N)C(=O)N[C@H](C(=O)N[C@@H](CCC(=O)O)C(=O)N[C@@H](CO)C(=O)O)[C@@H](C)O)C(C)C)C(C)C)[C@@H](C)CC	Streptococcus salivarius	inhibition zone	ATCC 1.2498	LB agar, overnight		lethal concentration	2.79 µM
CC(=O)CCC1C(=O)NC(C(C)C)C(=O)NC(Cc2cc(O)cc(F)c2)C(=O)N2CCCC(N2)C(=O)OC(C(C)=CC=CC(=O)N2CCCCO2)CC=CC=CC(O)C(C)C1O (stereo not drawn)	Hepatitis C virus	viral replication, inhibitor	HCV replicon cells, L27I/R318W/D320E/S370P/C446S		reference: wild-type replicon	fold resistance	~4 fold
CC[C@H](C)[C@H](NC(=O)[C@H](CCCCN)NC(=O)[C@H](CCCCN)NC(=O)[C@H](CC(C)C)NC(=O)[C@H](CCCCN)NC(=O)[C@H](CCC(=O)O)NC(=O)[C@H](CCCCN)NC(=O)[C@@H](NC(=O)[C@H](CCCCN)NC(=O)[C@H](CC(N)=O)NC(=O)[C@H](CCCNC(=N)N)NC(=O)[C@H](Cc1ccccc1)NC(=O)[C@H](CCCCN)NC(=O)[C@H](CCCNC(=N)N)NC(=O)[C@H](CC(C)C)NC(=O)[C@H](CCCNC(=N)N)NC(=O)[C@H](CCCCN)NC(=O)[C@H](CCCNC(=N)N)NC(=O)[C@H](CC(C)C)NC(=O)CN)[C@@H](C)CC)C(=O)NCC(=O)N[C@@H](CCC(N)=O)C(=O)N[C@@H](CCCCN)C(=O)N[C@H](C(=O)N[C@@H](CCC(N)=O)C(=O)NCC(=O)N[C@@H](Cc1ccccc1)C(=O)N[C@H](C(=O)N1CCC[C@H]1C(=O)N[C@@H](CCCCN)C(=O)N[C@@H](CC(C)C)C(=O)N[C@@H](C)C(=O)N1CCC[C@H]1C(=O)N[C@@H](CCCNC(=N)N)C(=O)N[C@H](C(=O)N[C@@H](CC(=O)O)C(=O)N[C@@H](Cc1ccc(O)cc1)C(=O)O)[C@@H](C)O)C(C)C)[C@@H](C)CC	Streptococcus sanguinis	inhibition zone	ATCC 1.2497	LB agar, overnight		lethal concentration	1.16 µM
CC(C)C[C@@H]1NC(=O)[C@H](CCCCN)NC(=O)[C@H](C(C)C)NC(=O)[C@@H]2CCCN2C(=O)[C@@H](Cc2ccc(O)cc2)NC(=O)[C@H](CC(C)C)NC(=O)[C@H](CCCCN)NC(=O)[C@H](C(C)C)NC(=O)[C@H](CCCCN)NC(=O)[C@@H]2CCCN2C(=O)[C@@H](Cc2ccc(O)cc2)NC(=O)[C@H](CCCCN)NC1=O	Gram-negative bacteria			24 h, 7 strains		MIC geometric mean	105 µg/mL (≈ 72 µM)
CC(=O)O[C@@H]1C[C@@H](C)O[C@H]2O[C@@H]3C[C@@H]4CC[C@@H]5[C@H](CC[C@]6(C)[C@@H](C7=CC(=O)OC7)CC[C@]56O)[C@@]4(C)C[C@H]3O[C@]21O	Schistosoma mansoni		mouse, chronic infection	oral, 10 mg/kg single dose, MV		worm number	11 ± 7.1
CC[C@H](C)[C@H](NC(=O)[C@H](CO)NC(=O)[C@H](CO)NC(=O)[C@H](Cc1ccccc1)NC(=O)CN)C(=O)N[C@@H](Cc1ccccc1)C(=O)N[C@@H](CCCNC(=N)N)C(=O)NCC(=O)N[C@H](C(=O)N[C@@H](C)C(=O)N[C@@H](CCCCN)C(N)=O)C(C)C	Escherichia coli		ATCC 8739	together with: 8 mM ZnCl2		MBC	> 128 µM
CC(=O)N[C@H](CCCCN)C(=O)N[C@H](CC(C)C)C(=O)N[C@H](CCCCN)C(=O)N[C@H](CO)C(=O)N[C@H](CC(C)C)C(=O)N[C@H](CC(C)C)C(=O)N[C@H](CCCCN)C(=O)N[C@@H](C(=O)N[C@H](CC(C)C)C(=O)N[C@H](CO)C(=O)N[C@H](CCCCN)C(=O)N[C@H](C)C(=O)N[C@H](CCCCN)C(=O)N[C@H](CCCCN)C(=O)N[C@H](CCCCN)C(=O)N[C@H](CC(C)C)C(=O)N[C@H](CC(C)C)C(=O)N[C@H](CCCCN)C(=O)N[C@@H](C(=O)N[C@H](C)C(=O)N[C@H](CC(C)C)C(=O)N[C@H](CCCCN)C(=O)N[C@H](C)C(=O)N[C@H](CC(C)C)C(=O)N[C@H](CO)C(=O)N[C@H](CCCCN)C(N)=O)[C@H](C)O)[C@H](C)O	Acinetobacter baumannii		11 isolates		reference: HC50 over geometric mean MIC	therapeutic index	339
CCC1c2cc(OC)c(O)cc2C(c2ccc(O)c(OC)c2)C1C (stereo not drawn)	Spodoptera frugiperda		larvae	500 µg/mL	reference: untreated control	antifeedant index	33.7%
COc1ccccc1-c1n[nH]c2nc(N[C@H]3CC[C@H](NS(=O)(=O)CC(C)C)CC3)ncc12	Leishmania donovani		promastigotes		reference: wild type	fold change EC50	1
C=CCc1ccc(OCC=C(C)C)c(OC)c1	Spodoptera frugiperda		larvae	500 µg/mL	reference: untreated control	antifeedant index	53.8%
COc1ccc(-n2c(SCCCN3CCOCC3)nnc2[C@H](Cc2ccccc2)NC(=O)Cc2c(C)[nH]c3ccccc23)cc1	HIV-1 NL4-3	single-round infection		5 µM, late stage	reference: untreated	infection	11.2 ± 8.19%
C/C=C/c1ccc(OC(C)=O)c(OC)c1	Spodoptera frugiperda		larvae	500 µg/mL	reference: untreated control	antifeedant index	65.4%
CC[C@@](C)(NC)C(=O)NC(C)(C)C(=O)NC(C)(C)C(=O)NC(C)(C)C(=O)NCC(=O)NC(C)(C)C(=O)N1CCC[C@@H]1C(=O)N[C@@H](Cc1c[nH]c2ccccc12)C(=O)NC(C)(C)C(=O)N1C[C@H](O)C[C@@H]1C(=O)N[C@@H](C)C(=O)NC(C)(C)C(=O)NCCCC(=O)N[C@@H](CC(C)C)C(=O)N[C@](C)(CC)C(=O)NC(C)(C)C(=O)N[C@](C)(CC)C(=O)N[C@H](CO)Cc1ccccc1	Gram-negative bacteria			concentration not given		antibacterial activity	no effect
CC[C@H](C)[C@H](NC(=O)CNC(=O)[C@H](CC(C)C)NC(=O)[C@@H](NC(=O)CNC(=O)[C@H](CC(C)C)NC(=O)[C@H](CCC(N)=O)NC(=O)[C@@H](NC(=O)[C@H](CO)NC(=O)[C@H](C)NC(=O)[C@H](CCCCN)NC(=O)[C@H](CCCNC(=N)N)NC(=O)[C@H](CC(C)C)NC(=O)CNC(=O)[C@H](CCC(N)=O)NC(=O)[C@H](CC(C)C)NC(=O)[C@H](CC(C)C)NC(=O)[C@H](CCC(=O)O)NC(=O)CNC(=O)[C@H](CCCNC(=N)N)NC(=O)[C@@H](NC(=O)[C@H](CCCCN)NC(=O)[C@H](Cc1ccccc1)NC(=O)[C@H](CCCCN)NC(=O)[C@H](CCCCN)NC(=O)[C@H](CO)NC(=O)[C@H](CCCCN)NC(=O)[C@H](CC(C)C)NC(=O)[C@H](CC(C)C)NC(=O)[C@H](CCCCN)NC(=O)[C@H](CCCCN)NC(=O)[C@@H](NC(=O)[C@@H](NC(=O)[C@H](CCCCN)NC(=O)CNC(=O)[C@H](CC(C)C)NC(=O)[C@H](CCCCN)NC(=O)[C@H](C)N)[C@@H](C)O)[C@@H](C)CC)[C@@H](C)CC)C(C)C)[C@@H](C)O)C(=O)N[C@@H](CC(C)C)C(=O)O	Gram-negative bacteria	MIC		concentration not given		antibacterial activity	active
CCC(NC(=O)NNS(=O)(=O)c1ccc(C)cc1)(C(F)(F)F)C(F)(F)F	Rotavirus		MA104	concentration not given		antiviral activity	inactive
C=C(C)[C@@H]1CCC=C2CC[C@]3(C)[C@H](CC[C@@H]4[C@@]5(C)CCCNC(C)(C)[C@@H]5CC[C@]43C)[C@H]21	Human cytomegalovirus		HFF, AD169		reference: CC50 over EC50	selectivity index	< 3
O=C(Cn1ccc(=O)c2ccccc21)N/N=C/c1cc(Br)c(O)c(Br)c1	Botrytis cinerea	microbial growth		50 µg/mL		inhibition	25%
CC(=O)Nc1cccc(CNC(=O)c2cnc3ccccc3c2C(F)(F)F)c1	Drosophila melanogaster		APP transgenic (Alzheimer model)	in food, 100 µM, 72 h, from adult day 3		median survival	33 days
CC1(C)NCCC[C@]2(C)[C@H]3CC=C4[C@@H]5C[C@@](C)(CO)CC[C@]5(C)CC[C@@]4(C)[C@]3(C)CC[C@@H]12	Human alphaherpesvirus 1		HFF, E-377		reference: CC50 over EC50	selectivity index	< 2
CC(=O)c1c(O)c(C)c(O)c2c1OC1=CC(=O)/C3=C(/C)N[C@H](C(=O)O)CC1=CC=CC=C[C@]2(C)C3=O	Candida tropicalis	broth microdilution	ATCC 750 fluconazole and amphotericin B resistant	24 and 48 h		MIC99	1.59 µM (≈ 0.781 µg/mL)
CN[C@@H]1[C@H](O)[C@H](NC)[C@H]2O[C@]3(O)[C@H](O[C@@H]2[C@H]1O)O[C@H](C)C[C@@]3(O)CNCc1ccc(F)cc1	Streptococcus pneumoniae		TIGR4, mice, intranasal challenge	5 mg/kg, from 18 h post infection		survival	80%
C=CCc1ccc(OCC(=C)C)c(OC)c1	Spodoptera frugiperda		larvae	50 µg/mL	reference: untreated control	antifeedant index	22.8%
CC(=O)C1=C(O)C=C2Oc3c(C(C)=O)c(O)c(C)c(O)c3[C@@]2(C)C1=O	Candida tropicalis	broth microdilution	ATCC 750, fluconazole and amphotericin B resistant	24 and 48 h		MIC99	17.4 µM (≈ 5.99 µg/mL)
